Measured values pooled from the literature.
Compare with care: the assays were run in different laboratories. Numbers after ± are the reported error.

Compound	test	system	setting	scale	endpoint	value
CC(C)C[C@H](NC(=O)C[C@H](O)[C@H](CC(C)C)NC(=O)[C@H](Cc1c[nH]cn1)NC(=O)CNC(=O)[C@@H](NC(=O)[C@H](C)NC(=O)[C@H](Cc1c[nH]c2ccccc12)NC(=O)[C@H](CCC(N)=O)NC(=O)[C@@H](Cc1ccccc1)NC(=O)c1ccc(NC(=O)CNC(=O)CCC(C(=O)O)N2CCN(CC(=O)O)CCN(CC(=O)O)CC2)cc1)C(C)C)C(N)=O (some centres unmarked) [fluorine-18 labelled]	PET imaging	mouse, PC-3 xenograft	intravenous, 0.5 h, blocking, with: AMBA 10 mg/kg	–	tumour uptake	2.5 ± 0.36 %ID/g
N=C(N)NCCC[C@@H]1NC(=O)[C@H](CCCCNC(=O)CNC(=O)CNC(=O)CNC(=O)CC[C@H](NC(=O)CCOCCOCCOCCOCCNC(=O)CC[C@H](NC(=O)CN2CCN(CC(=O)O)CCN(CC(=O)O)CCN(CC(=O)O)CC2)C(=O)NCCOCCOCCOCCOCCC(=O)N[C@@H](CCC(=O)NCC(=O)NCC(=O)NCC(=O)NCCCC[C@@H]2NC(=O)[C@@H](Cc3ccccc3)NC(=O)[C@H](CC(=O)O)NC(=O)CNC(=O)[C@H](CCCNC(=N)N)NC2=O)C(=O)NCC(=O)NCC(=O)NCC(=O)NCCCC[C@@H]2NC(=O)[C@@H](Cc3ccccc3)NC(=O)[C@H](CC(=O)O)NC(=O)CNC(=O)[C@H](CCCNC(=N)N)NC2=O)C(=O)NCC(=O)NCC(=O)NCC(=O)NCCCC[C@@H]2NC(=O)[C@@H](Cc3ccccc3)NC(=O)[C@H](CC(=O)O)NC(=O)CNC(=O)[C@H](CCCNC(=N)N)NC2=O)NC(=O)[C@@H](Cc2ccccc2)NC(=O)[C@H](CC(=O)O)NC(=O)CNC1=O [indium-111 labelled]	–	athymic nude mice, female, U-87 MG glioma xenograft, tumour and blood	intravenous, 72 h	relative to: tumour over blood	tumour to tissue ratio	94 ± 22.3
CSCC[C@H](NC(=O)[C@H](CC(C)C)NC(=O)[C@H](Cc1c[nH]cn1)NC(=O)CNC(=O)[C@@H](NC(=O)[C@H](C)NC(=O)[C@H](Cc1c[nH]c2ccccc12)NC(=O)[C@H](CCC(N)=O)NC(=O)CCCCCNC(=O)CNC(=O)CNC(=O)CNC(=O)CSC(C)=O)C(C)C)C(N)=O [technetium-99m labelled]	–	Swiss mouse, spleen	intravenous, 18.5 MBq, 5 min	–	tissue uptake	1.45 ± 0.24 %ID/g
CCCC[C@H](NC(=O)CCCCCCCNC(=O)c1ccc(NN)nc1)C(=O)N[C@H]1CC(=O)NCCCC[C@@H](C(N)=O)NC(=O)[C@H](Cc2c[nH]c3ccccc23)NC(=O)[C@H](CCCNC(=N)N)NC(=O)[C@@H](Cc2ccccc2)NC(=O)[C@H](Cc2c[nH]cn2)NC1=O [technetium-99m labelled]	–	C57 mice, B16/F1 melanoma, urine	concentration not given, 2 h, with: 6.07 nmol NDP-MSH	–	biodistribution	91.29 ± 0.7 %ID
N=C(N)NCCC[C@@H]1NC(=O)[C@H](CCCCNC(=O)CCOCCOCCOCCOCCNC(=O)CN2CCN(CC(=O)O)CCN(CC(=O)O)CCN(CC(=O)O)CC2)NC(=O)[C@@H](Cc2ccccc2)NC(=O)[C@H](CC(=O)O)NC(=O)CNC1=O [indium-111 labelled]	–	athymic nude mice, female, U-87 MG glioma xenograft, tumour and kidney	intravenous, 24 h	relative to: tumour over kidney	tumour to tissue ratio	0.75 ± 0.07
CC(=O)O[C@H]1C(=O)[C@@]2(C)[C@H]([C@H](OC(=O)c3ccccc3)[C@]3(O)C[C@H](OC(=O)[C@H](OC(=O)Cc4ccccc4SSCCC(=O)NCCOCCOCCNC(=O)CCC(=O)NCC(=O)NCC(=O)N[C@@H](CCCCN)C(=O)N[C@H](C(=O)N[C@@H](CCCCN)C(=O)N[C@H](C(=O)N[C@@H](CCCCN)C(=O)N[C@H](C(=O)N[C@@H](CCCCN)C(=O)N[C@H](C(=O)N4CCC[C@@H]4C(=O)N4CCC[C@H]4C(=O)N[C@H](C(=O)N[C@@H](CCCCN)C(=O)N[C@H](C(=O)N[C@@H](CCCCN)C(=O)N[C@H](C(=O)N[C@@H](CCCCN)C(=O)N[C@H](C(=O)N[C@@H](CCCCN)C(N)=O)C(C)C)C(C)C)C(C)C)[C@@H](C)O)C(C)C)C(C)C)C(C)C)C(C)C)[C@@H](NC(=O)c4ccccc4)c4ccccc4)C(C)=C1C3(C)C)[C@]1(OC(C)=O)CO[C@@H]1C[C@@H]2O	–	HEPES buffer	24 h, pH 7.4, 37 °C	relative to: compound over free paclitaxel	solubility increase	~1000 fold
CCCC[C@H](NC(=O)CNC(=O)CNC(=O)CNC(=O)c1ccc(NN)nc1)C(=O)N[C@H]1CC(=O)NCCCC[C@@H](C(N)=O)NC(=O)[C@H](Cc2c[nH]c3ccccc23)NC(=O)[C@H](CCCNC(=N)N)NC(=O)[C@@H](Cc2ccccc2)NC(=O)[C@H](Cc2c[nH]cn2)NC1=O [technetium-99m labelled]	–	C57 mouse, B16/F1 melanoma, muscle	intravenous, 2 h	–	uptake	0.03 ± 0.03 %ID/g
N=C(N)NCCC[C@@H]1NC(=O)[C@H](CCCCNC(=O)CC[C@H](NC(=O)CCOCCOCCOCCOCCNC(=O)CN2CCN(CC(=O)O)CCN(CC(=O)O)CCN(CC(=O)O)CC2)C(=O)NCCCC[C@@H]2NC(=O)[C@@H](Cc3ccccc3)NC(=O)[C@H](CC(=O)O)NC(=O)CNC(=O)[C@H](CCCNC(=N)N)NC2=O)NC(=O)[C@@H](Cc2ccccc2)NC(=O)[C@H](CC(=O)O)NC(=O)CNC1=O [indium-111 labelled]	–	female athymic nude mouse	intravenous, 3 µCi, 72 h, U-87 MG glioma xenograft	relative to: tumour over muscle	tumour to muscle ratio	6.36 ± 0.84
Cc1ncsc1-c1ccc(CNC(=O)[C@@H]2C[C@@H](OC(=O)OCCSSCCn3cc(CCCC(=O)N[C@@H](Cc4ccc(O)cc4)C(=O)N[C@@H](CCCNC(=N)N)C(=O)N[C@@H](CCCNC(=N)N)C(=O)N[C@@H](CCCNC(=N)N)C(=O)N[C@@H](CCCNC(=N)N)C(=O)N[C@@H](CCCNC(=N)N)C(=O)N[C@@H](CCCNC(=N)N)C(=O)N[C@@H](CCCNC(=N)N)C(=O)N[C@@H](CCCNC(=N)N)C(=O)N[C@@H](CCCNC(=N)N)C(N)=O)nn3)CN2C(=O)[C@@H](NC(=O)COCCOCCOCCNC(=O)C[C@@H]2N=C(c3ccc(Cl)cc3)c3c(sc(C)c3C)-n3c(C)nnc32)C(C)(C)C)cc1	UHPLC	PBS	100 nM, 24 h, 37 °C, with: 5 mM glutathione	relative to: total peak area	released payload	100%
N=C(N)NCCC[C@@H]1NC(=O)[C@H](CCCCNC(=O)CC[C@H](NC(=O)CCOCCOCCOCCOCCNC(=O)CC[C@H](NC(=O)CN2CCN(CC(=O)O)CCN(CC(=O)O)CCN(CC(=O)O)CC2)C(=O)NCCOCCOCCOCCOCCC(=O)N[C@@H](CCC(=O)NCCCC[C@@H]2NC(=O)[C@@H](Cc3ccccc3)NC(=O)[C@H](CC(=O)O)NC(=O)CNC(=O)[C@H](CCCNC(=N)N)NC2=O)C(=O)NCCCC[C@@H]2NC(=O)[C@@H](Cc3ccccc3)NC(=O)[C@H](CC(=O)O)NC(=O)CNC(=O)[C@H](CCCNC(=N)N)NC2=O)C(=O)NCCCC[C@@H]2NC(=O)[C@@H](Cc3ccccc3)NC(=O)[C@H](CC(=O)O)NC(=O)CNC(=O)[C@H](CCCNC(=N)N)NC2=O)NC(=O)[C@@H](Cc2ccccc2)NC(=O)[C@H](CC(=O)O)NC(=O)CNC1=O [indium-111 labelled]	–	female athymic nude mice, liver	intravenous, 3 µCi, 0.5 h, U-87 MG glioma xenograft	–	tissue uptake	2.13 ± 0.74 %ID/g
CSCC[C@H](NC(=O)[C@H](CC(C)C)NC(=O)[C@H](Cc1c[nH]cn1)NC(=O)CNC(=O)[C@@H](NC(=O)[C@H](C)NC(=O)[C@H](Cc1c[nH]c2ccccc12)NC(=O)[C@H](CCC(N)=O)NC(=O)CCCCCNC(=O)CN1CCN(CC(=O)O)CCN(CC(=O)O)CC1)C(C)C)C(N)=O [gallium-68 labelled]	microPET imaging	mouse PC-3 xenograft, PC-3 tumour	intravenous, 3.7 MBq, 30 min	–	maximum tumour uptake	5.14 ± 1.15 %ID/g
CC(C)C[C@H](NC(=O)[C@@H]1CCCN1C(=O)[C@H](CCCCN)NC(=O)[C@@H](N)CO)C(=O)N1CCC[C@H]1C(=O)N[C@@H](CCC(=O)O)C(=O)N[C@H](C(=O)N[C@H](C(=O)N[C@@H](CC(=O)O)C(=O)N[C@@H](CCC(=O)O)C(=O)N[C@@H](Cc1ccc(O)cc1)C(=O)N[C@@H](Cc1cn(CCOCCOCCOCCNC(=O)CCc2ccc(O)c(CN(CCN(CC(=O)O)Cc3cc(CCC(=O)NCCCC[C@H](NC(=O)N[C@@H](CCC(=O)O)C(=O)O)C(=O)O)ccc3O)CC(=O)O)c2)nn1)C(=O)O)[C@@H](C)O)C(C)C [gallium-68 labelled]	–	NMRI nu/nu mice, LNCaP tumour, blood	135.34 nmol/kg, low molar activity	–	standardized uptake value	0.12 g/g
CCCC[C@H](NC(=O)CNC(=O)CNC(=O)c1ccc(NN)nc1)C(=O)N[C@H]1CC(=O)NCCCC[C@@H](C(N)=O)NC(=O)[C@H](Cc2c[nH]c3ccccc23)NC(=O)[C@H](CCCNC(=N)N)NC(=O)[C@@H](Cc2ccccc2)NC(=O)[C@H](Cc2c[nH]cn2)NC1=O [technetium-99m labelled]	–	C57 mouse, B16/F1 melanoma, lung	2 h, with: NDP-MSH 6.07 nmol blockade	–	uptake	0.34 ± 0.11 %ID/g
CSCC[C@H](NC(=O)[C@H](CC(C)C)NC(=O)[C@H](Cc1c[nH]cn1)NC(=O)CNC(=O)[C@@H](NC(=O)[C@H](C)NC(=O)[C@H](Cc1c[nH]c2ccccc12)NC(=O)[C@H](CCC(N)=O)NC(=O)CCCCNC(=O)CSCCSCCP(CO)CO)C(C)C)C(N)=O [technetium-99m labelled]	–	female CF-1 mouse, urine	intravenous, dose not given, 4 h	–	urinary excretion	45.7%

Some of these lines once more:
Compound	test	system	setting	scale	endpoint	value
CCCC[C@H](NC(=O)CNC(=O)CNC(=O)c1ccc(NN)nc1)C(=O)N[C@H]1CC(=O)NCCCC[C@@H](C(N)=O)NC(=O)[C@H](Cc2c[nH]c3ccccc23)NC(=O)[C@H](CCCNC(=N)N)NC(=O)[C@@H](Cc2ccccc2)NC(=O)[C@H](Cc2c[nH]cn2)NC1=O [technetium-99m labelled]	–	C57 mouse, B16/F1 melanoma, lung	2 h, with: NDP-MSH 6.07 nmol blockade	–	uptake	0.34 ± 0.11 %ID/g
CSCC[C@H](NC(=O)[C@H](CC(C)C)NC(=O)[C@H](Cc1c[nH]cn1)NC(=O)CNC(=O)[C@@H](NC(=O)[C@H](C)NC(=O)[C@H](Cc1c[nH]c2ccccc12)NC(=O)[C@H](CCC(N)=O)NC(=O)CCCCNC(=O)CSCCSCCP(CO)CO)C(C)C)C(N)=O [technetium-99m labelled]	–	female CF-1 mouse, urine	intravenous, dose not given, 4 h	–	urinary excretion	45.7%
